Measured values from different studies.
A part holds a random share of what one study measured. Changes are numbered by the printed parent chain.

Block 1
Target: RNA binding protein fox-1 homolog 2, RRM domain, GST-SBP tag (RBFOX2, Homo sapiens, UniProt O43251-10, residues 100-194)
Technique: RNA Bind-n-Seq
Molecule type: RNA
Matrix: in vitro
Concentration: 365 nM
Setting: natural RNA segment, single round, ends assumed
Reference: no-protein control
Direction: higher = stronger binding
Target sequence (chain): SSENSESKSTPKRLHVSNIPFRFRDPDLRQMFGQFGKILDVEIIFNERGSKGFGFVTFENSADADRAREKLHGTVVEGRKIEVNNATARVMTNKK
Under “RBNS enrichment (R)”, `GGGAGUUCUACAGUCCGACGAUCCUGCUCGGAGCUCAGUGCCGCAGCAUGGCUGUGGUGGACGCGGGAAACAACGGGAAAGUUCUUGACAGAGUCUGUGUCCGCUCAGUCCCUGCACUUUUCCUUUCCAAAUGUGGAAUUCUCGGGUGCCAA` is recorded as 0.262.
`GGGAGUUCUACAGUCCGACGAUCGCACUCGCUUUAGUGCCUAGUACAGUGCUGAGCACACAGUAGGUGUUUAAUAAAUGCUUGUUAAAUUUUGUGUGGAUUUUUUUGUAAUGUUGAGAUUUUUAAGGGCUUUCUGGAAUUCUCGGGUGCCAA` — result for “RBNS enrichment (R)”: 1.83.
Under “RBNS enrichment (R)”, `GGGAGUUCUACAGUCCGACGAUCUCAGUCUUUCCUUUGAAAAUCCAUAUAAAGUACAACUUUUAGCGUGAUUAUUUUCCUAAAUACAAAGACAAAUAAUUUACUUAUUUUAUGUUAAUUACGGGCAUGAAGCAUGGAAUUCUCGGGUGCCAA` is recorded as 0.677.
Under “RBNS enrichment (R)”, `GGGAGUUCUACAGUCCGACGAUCGUGGGUGUGCCGGGUGGGGUGUGUGUGAUCAAAGGACAAAGACAGUAUUUUGACAAAAUACGAAGUGGAGAUUUACACUACAUUGUACAAGGAAUGAAAGUGUCACGGGUUGGAAUUCUCGGGUGCCAA` is recorded as 0.789.
For `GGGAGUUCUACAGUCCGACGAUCAGCUUUUUAGUCAGCAGUUUUGUAAACUCUGUAUAUAAAAUCAUUAACCACACAUUGUGGGUGAUGGGAAGACGAUUUCAGCUGACAGAGUUAAUGGCAACCAAUAAUGGUGGAAUUCUCGGGUGCCAA`, “RBNS enrichment (R)” read 0.292.
Under “RBNS enrichment (R)”, `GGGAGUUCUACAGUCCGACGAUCCCUUUUUGGGGGAGUGAGAAUACAGAUACAAGAAGACAGACACAUUUAGAUGGAAUCUUACCACGACUUGAGGCUAGGACCACCCACUUCCUCUUUCCCAGCCCUAUUUCUGGAAUUCUCGGGUGCCAA` is recorded as 0.393.
`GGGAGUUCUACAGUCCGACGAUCACCAAGUGAUCUUGUUUACAGUAACCGUCAACAGUGCCAAUAAGGGGUGAGGACACUAACAGUGUAACUGGUGACCACGUGAACAGUUCCAUGAAUUAAAUGUUUCCUGUUGGAAUUCUCGGGUGCCAA`: “RBNS enrichment (R)” 0.539.
Under “RBNS enrichment (R)”, `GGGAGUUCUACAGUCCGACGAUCCUGCAGUUAGAACAUGGAUGUUUCUUCUUUGAUUAUCAAAAACACAAAAACAGAGAGCAAGCCCGAGGAGGAGACUGGUGACUUUCCUGUGUCCUCAGCUAACAAAGGCAUGGAAUUCUCGGGUGCCAA` is recorded as 2.01.
`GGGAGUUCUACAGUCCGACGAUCUGUAGUCCCAGAGCCCGUCACAGCCCUUGUGGUUCAAGCUUCUUCUGCCUCUUUAGGAAGUGAGGGUUUCUUGUUCUCCUUUAAAAAUCAGUCUCUAGACUACGGCCAUCUGGAAUUCUCGGGUGCCAA`: “RBNS enrichment (R)” 0.224.
`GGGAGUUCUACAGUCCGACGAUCGGAAAUAGAGUAGCAGUUGAUAUUUCUAAAUUGUGACCAUUGUCCGAGAUUGCUUUGAGAACUGGUAGUUAUUCUCUUUAUGUUUGGAGGCAGCCAUUAGGCUGUAGGCCUGGAAUUCUCGGGUGCCAA` — result for “RBNS enrichment (R)”: 2.09.
For `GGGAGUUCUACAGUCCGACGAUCUACUGUAUUAGUCCGUUUUCACGCUGCUGAUAAAGACAUACCCGAGACUGGGAAGAAAAAGUGGUUUAAUUGGACUUAAAGUUCCACAUGGCUGGGGAGGCCUCAGAAUCUGGAAUUCUCGGGUGCCAA`, “RBNS enrichment (R)” read 0.632.
`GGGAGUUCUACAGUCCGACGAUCCAGGGCAGAGGAAACAAAACACAGCUAUCCUGUUGGCCUGUGUUGUGGUUUUGAAGUUUGUACUUUCUCUGUGGGUGCCAGUUAAAUAUUGGAGAGCAAGGAAUGUGGACUGGAAUUCUCGGGUGCCAA`: “RBNS enrichment (R)” 1.04.

Block 2
Molecule: PhoQ, residues 284 288 289 292 302 303 QWGLFV
Technique: Sort-seq
Measured: YFP reporter
Matrix: E. coli
Setting: PhoQ-PhoP variant library
With: 10 µM Mg2+
Reference: high Mg2+ state
Direction: higher = stronger signaling
PhoP, residues 12 14 15 18 19 VGHWL (Escherichia coli, UniProt P23836) — fold induction: 9.84.
For PhoP, residues 12 14 15 18 19 NFFVT (Escherichia coli, UniProt P23836): fold induction read 10.2.
The fold induction was 11.4 (PhoP, residues 12 14 15 18 19 LHHYF (Escherichia coli, UniProt P23836)).
PhoP, residues 12 14 15 18 19 TPWTL (Escherichia coli, UniProt P23836) — fold induction: 0.929.

Block 3
Target: ABI1, truncated, D143A, DHFR fusion (Arabidopsis thaliana)
Technique: DHFR PCA, deep sequencing
Matrix: yeast
Setting: methotrexate growth selection, single substitutions
With: (+)-ABA 1.4 µM
Reference: wild-type fitted maximum
Direction: higher = stronger binding
Parent: PYL1, truncated, DHFR fusion (Arabidopsis thaliana); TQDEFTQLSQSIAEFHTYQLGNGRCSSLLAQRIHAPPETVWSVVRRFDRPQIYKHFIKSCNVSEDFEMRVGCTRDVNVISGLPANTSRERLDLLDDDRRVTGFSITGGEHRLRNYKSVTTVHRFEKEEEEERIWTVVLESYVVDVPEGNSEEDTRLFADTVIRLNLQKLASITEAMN
Under “relative binding score”, `G71Q` is recorded as 2.11%.
`G107L` — result for “relative binding score”: -7.38%.
`L82T`: “relative binding score” 3.86%.
For `S59P`, “relative binding score” read -6.37%.
Under “relative binding score”, `S26W` is recorded as 11.7%.
`L28P`: “relative binding score” 7.94%.
`W41D` — result for “relative binding score”: -19.9%.
`R111E` — result for “relative binding score”: -9.51%.
For `V161N`, “relative binding score” read 7.41%.
`T106S`: “relative binding score” 7.37%.
`T6R` — result for “relative binding score”: 68.3%.
`L29R` — result for “relative binding score”: 13.3%.

Block 4
Target: Hepatocyte nuclear factor 3-alpha (Foxa1, Mus musculus, UniProt P35582, residues 1-468, full length assumed)
Technique: EMSA with sequencing
Molecule type: double-stranded DNA, one strand shown
Matrix: in vitro
Concentration: 10 and 20 nM
Setting: whole designed probe, mean of two concentrations, ends assumed
Reference: negative control set to 0
Direction: higher = stronger binding
Target sequence (chain): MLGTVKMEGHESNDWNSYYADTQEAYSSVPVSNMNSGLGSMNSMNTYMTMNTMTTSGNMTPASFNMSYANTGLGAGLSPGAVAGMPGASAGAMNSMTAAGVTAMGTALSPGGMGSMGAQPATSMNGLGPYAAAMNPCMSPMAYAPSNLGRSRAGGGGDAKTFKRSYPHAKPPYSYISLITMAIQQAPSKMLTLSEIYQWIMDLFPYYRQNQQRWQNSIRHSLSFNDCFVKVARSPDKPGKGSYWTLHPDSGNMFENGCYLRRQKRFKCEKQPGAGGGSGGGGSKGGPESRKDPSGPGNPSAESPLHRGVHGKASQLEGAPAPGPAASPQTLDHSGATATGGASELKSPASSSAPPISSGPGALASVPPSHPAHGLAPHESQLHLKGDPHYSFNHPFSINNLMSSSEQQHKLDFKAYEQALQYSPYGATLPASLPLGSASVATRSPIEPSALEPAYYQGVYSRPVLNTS
`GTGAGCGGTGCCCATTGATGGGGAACATCTTCCCCCTCTTCCTTGCCCCACCAGCTCACCTTCCCGGGTTATTTGCACAAAGGAAAATAAATAAAGCCGGCATTCGTTAACGCAGTTCTGGCGCAAACTGCTGTTTGCTCTGGATCTAACATGGTCCTTTGGCGACGCCAGGCTCCGGGAGAGCAAAGCACCGTGTCAGGGCCATGATCCGGGGTGGCCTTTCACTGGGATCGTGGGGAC` — result for “normalised bound fraction”: 0.371 ratio.
For `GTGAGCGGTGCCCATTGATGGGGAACCCAAACAACTCCCACAATGTCCTTCCTACTGATGCATAACTGGTATTTAATAACAAACTATTTGCATTTTAAATTACTTTGTGTGCACTGGATGTTTACTCTGATCTGATCATAAGAAGTATTTTGCCTTGAGGAGGAGTTATGCTGCAGACAAAATTAACTCTCGATTAAAAATTCTACATAATCTTTAAAATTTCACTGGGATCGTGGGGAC`, “normalised bound fraction” read 0.336 ratio.
`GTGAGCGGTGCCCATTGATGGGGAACTCCACAGTAGAAACGAAGGAGATGACAGATACCCCGGCACCAAAACTGACACCAGGTTTTTGTTGCTTCTTCCACTATATAATGGAGAAGTTCTGTTTACTCTATACTGTTAACATTGGCTTAAGTTGTGCAACGGAAACCCAAGAAACTGAATCACATCAAAGGTATGTCAGAGGTATGTGAACCAGAGCAATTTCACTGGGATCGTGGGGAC` — result for “normalised bound fraction”: 0.369 ratio.
`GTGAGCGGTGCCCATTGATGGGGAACAATAGCGCTCTGGAGAGAAGGTCCGTTCCATGCCCAGGTAGGGAGGAGGGGGAAAAATGATACTGGCGGGCAGGGAGAGGGGAAGGCAAGAAAGCAATCTGGCGTGGAAGAGCTGTGACGTCAAATCTGACTTCTTTTGTCTGTAGACGGGGGAATCCAGGGTGACTGGGTATAATCTGTATTATCTAGGTCCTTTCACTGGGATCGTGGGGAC`: “normalised bound fraction” -0.0694 ratio.
`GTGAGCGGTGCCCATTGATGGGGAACACATGCTTTCTTTCCTTTTTTTTTTTCTTTTTGACCTGTGTGTTTTTTACTCTATGTAATTTTGGACAGCTGAATCATTACCTTTCTTATTCATGTTTACAGAGAGTTTATTTATTTGGAACAAAGAGAAAGTTTAAAAATTTGGAAGTTCTCCAAACATTTTCAGTTAAGCAGCATACCATATACAGTGATTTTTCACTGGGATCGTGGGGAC` — result for “normalised bound fraction”: 0.255 ratio.
Under “normalised bound fraction”, `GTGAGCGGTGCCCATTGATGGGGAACGTAGGGGTAATGAAAAACTTCTTGTGCAAGCGGCCATTAATCAGCAGTGTAACATTGCATAACGTGCTCCAAAGCACGTGTCATGGGATCAGAGTACTCTGCTGCATAATGCAGGCCAGTGTCTGTGCCTCCTGCTGACCTTTTCCAATGCAGAACTCGAACCATGTGATGCATGCTTCTTGCCAAGTCACTTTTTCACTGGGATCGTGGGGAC` is recorded as -0.0684 ratio.
`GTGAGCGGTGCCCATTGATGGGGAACTCTTTCACTCAAGTGGTATATCCCACAGCCCTAAAGAAGCAAGGGAAATAAGAATTAGAACTAGACATCCCAGGAGACAAAGAATTCAACAAAGCAAACATTAACCAATCCCTTCACTATTTACCACTTCCTGCAGAAAATCTCTCTGGCTCAGGCCGGGCAGTGAGTTCATTTATTTCAACAAAATCAAAGATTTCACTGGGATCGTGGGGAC` — result for “normalised bound fraction”: 0.328 ratio.
For `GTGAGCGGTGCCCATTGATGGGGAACATCTTCCCCCTCTTCCTTGCCCCACCAGCTCACCTTCCCGGGTTATTTGCAGATAGGAAAATAAATAAAGCCGGCATTCGTTAACCCTCTTCTGGCGCAAACTGCTGTTTGCTCTGCATCTAACATGGTCCTTACGCGACGCCAGGCTCCGGGAGAGCAAAGCACCGTGTCAGGCGCATGATCCGGGCTCGCCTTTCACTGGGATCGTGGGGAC`, “normalised bound fraction” read 0.353 ratio.
